Measured values pooled from the literature.
A part holds a random share of what one study measured.

Set 1
Target: Sal-like protein 4, full length isoform B (SALL4, Homo sapiens, UniProt Q9UJQ4-2, residues 1-616)
Method: universal PBM
Molecule type: double-stranded DNA, one strand shown
Matrix: in vitro
Tested at: not given
Setting: 8-mer, flanks averaged, mean of replicates
Direction: higher = stronger binding
Oligonucleotide | E-score
CCGATTAC | -0.0768
CAGTGTAG | 0.028
CTCGTGCA | -0.0779
CTTAGTTC | -0.118
TAGTTTCA | 0.276
ACTTACAG | 0.0717
CCAGAGCA | -0.129
TCAGTTCA | 0.0166
CCCCGTCC | -0.234
AATCTCCA | 0.107
GACCGGTC | -0.255
ACGAGACT | 0.0286
GAACAAGA | 0.0623
CTACGCCA | -0.122
ATCTCTGG | 0.00492
TCGCTGAA | 0.0946
CCGACACG | -0.292
AGATTGCC | -0.0569
TCCTATAA | 0.278
GATGGCGC | -0.272
ATTTACGG | 0.202
ATCTGGGC | -0.253
CTGTTACA | 0.0429
TAGATGAA | 0.216
TATTGGCA | 0.129

Set 2
Target: Phosphate system positive regulatory protein PHO4, full length, GST-tagged (PHO4, Saccharomyces cerevisiae, UniProt P07270, residues 1-312)
Method: competition protein-binding microarray
Molecule type: double-stranded DNA, one strand shown
Matrix: in vitro
Tested at: 2 µM
Setting: whole 60-bp probe, lowest competitor level
Added: Cbf1 competitor, 0.05 µM
Direction: higher = stronger binding
Target sequence (chain): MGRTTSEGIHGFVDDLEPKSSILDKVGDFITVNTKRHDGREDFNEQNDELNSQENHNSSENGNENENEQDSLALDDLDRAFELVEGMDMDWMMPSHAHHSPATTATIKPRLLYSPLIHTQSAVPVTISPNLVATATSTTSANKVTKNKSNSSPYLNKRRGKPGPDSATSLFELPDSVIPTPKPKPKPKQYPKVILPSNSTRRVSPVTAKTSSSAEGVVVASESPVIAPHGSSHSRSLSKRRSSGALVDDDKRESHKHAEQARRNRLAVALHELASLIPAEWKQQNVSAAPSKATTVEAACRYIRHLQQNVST
Oligonucleotide | fluorescence intensity [a.u.]
CTTTCCCGATCTTGACACGTGTTTTTAGCACATTTGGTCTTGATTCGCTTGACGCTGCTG | 16200
GGCAAGGGTCCGTTTCGCGTGACGAATCATAGCGGGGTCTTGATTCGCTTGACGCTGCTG | 5140
TTGACCGATTTTCTGATCATGCAAAACTTTAGAGCTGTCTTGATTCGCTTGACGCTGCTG | 3940
CGTTTCATTCAAGAGGGCGTGCATCCGCGGATCATCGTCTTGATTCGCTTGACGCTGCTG | 7840
TCCCTGGGTCCCGGCCACGTGTAACGCTTCAACAACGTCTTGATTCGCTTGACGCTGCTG | 17400
AGGTGCCTTCGGTAACATGTGTCTTGGTGGTCGTATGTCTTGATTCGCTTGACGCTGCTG | 11300
CGGGGTTAAGTTTGCGTAGTGGGTGGCTTGCAGCAGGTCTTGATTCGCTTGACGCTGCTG | 4660
CCGGAATACCGAAAGCACGGGCCAGACCGAAATCGAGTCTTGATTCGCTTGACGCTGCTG | 8160
GTCTTGTCTCATTGTTCCGTGGGTGTCCCCACTTCAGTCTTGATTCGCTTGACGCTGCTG | 4840
TGCGCAACAACTTTTCACGTGCTTTTATGTCTAGAAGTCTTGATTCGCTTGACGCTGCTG | 15800
CAAGAAATCTTGTTCCTCGTGGCCGAATGGTTACGGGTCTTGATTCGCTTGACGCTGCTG | 11300
AAAGCGGTAATTTGCGCGGTGGGTGCAGATATCTATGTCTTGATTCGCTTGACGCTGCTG | 4380
CCATTAGTAGGTTGTCATGAAGGTGCTGGTGTAGTTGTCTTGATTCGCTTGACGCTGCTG | 5780
GGGATTTCGTTACAGCACGTGGCAAGCAGAGGAAGAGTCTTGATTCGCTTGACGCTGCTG | 18700
CTAACGAAGGTTTGTCACATCACTTACAAGCCAAGTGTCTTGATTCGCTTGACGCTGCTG | 3300
CTAGACCAGTAGCAACACATGGACCGATAACACCAGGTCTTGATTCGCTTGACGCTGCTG | 8620
ATTTTGCTAATTAAAGGCGTGCCGAAGCGGCGACTAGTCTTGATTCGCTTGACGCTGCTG | 9770
GTCTTGTCTCATTGCACGGTGGGTGTCCCCACTTCAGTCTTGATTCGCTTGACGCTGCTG | 7210
CGTCCTAGCGATTGAGCAGTGGGTGCCATGAGGAAGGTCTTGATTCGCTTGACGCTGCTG | 6460
AAAGCGGTAATTTGTATGGTGGGTGCAGATATCTATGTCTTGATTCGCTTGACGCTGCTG | 4190
GGGACTAGGGGATTGCATGTGCGGGGCAGGGGCACTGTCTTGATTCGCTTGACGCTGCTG | 8400
CTAACGAAGGTTTGCCTAGTGGGTGACAAGCCAAGTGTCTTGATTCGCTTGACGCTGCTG | 3870
TGTCATATTCATTTGCACGTTCTTTTTTTAATTTATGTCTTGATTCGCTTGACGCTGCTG | 15100
AGGAAACAATTGGTGAGCATGACAAACTTGTTTGGCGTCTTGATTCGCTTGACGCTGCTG | 4560

Set 3
Target: Interferon regulatory factor 5, full length, phosphomimetic (IRF5, Homo sapiens, UniProt Q13568-2, residues 1-514, S451D/S453D/S456D/S462D)
Method: protein-binding microarray
Molecule type: double-stranded DNA, one strand shown
Matrix: in vitro
Tested at: 940 nM top
Setting: 60-bp whole probe
Added: salmon DNA 0.4 mg/ml
Reference: random background probes
Direction: higher = stronger binding
All sequences stand within: GCCTAGCAC … GTCTTGATTCGCTTGACGCTGCTG
Oligonucleotide | fitted relative affinity
GACGGACTGGACTATCGGGTCGTGCTA | -0.37 z-score
CATGCTCTTATATACCTGTATGTGCTA | 0.588 z-score
TCATTTTTCTATATGCAACTGTGCTAG | 1.21 z-score
TTAGGCCTCGGACTGGGTTAGTGCTAG | -0.631 z-score
TCATTTTAGCTTCTCAAACTGTGCTAG | 0.029 z-score
GACGGTCTCGGACTGGGGAAGTGCTAG | 0.726 z-score
TCATGTATATATTTTAAACTGTGCTAG | 0.191 z-score
GACGGTTTCGACTTTCGGGGCGTGCTA | 7.83 z-score
GACGGTTTCCATCTCCTGACGTGCTAG | 1.77 z-score
CCCGCTTTTTTTTTTTTTTTGTGCTAG | 0.9 z-score
GACGGACTGCTTATCCGGACGTGCTAG | -0.238 z-score
GACGATCTCAGACTAGAGACGTGCTAG | -0.317 z-score
TCATCTTTCTAATTCAAACTGTGCTAG | 1.47 z-score
TCAACTTTCCCCTTCCTACTGTGCTAG | 1.42 z-score
GACGGTATCGACTATCGGGTCGTGCTA | 5.93 z-score
GACGGTATCGGGATTGGGGACGTGCTA | 3.43 z-score
CATTGCCTATTTTTCCCCTGGTGCTAG | 1.43 z-score
TTAGAACTGGGGACTGGAATAGTGCTA | -0.172 z-score
TAAGGTATCGGGACTGGGTTAGTGCTA | 2.39 z-score
TTAGGACTGGGGACTGGTTTAGTGCTA | -0.26 z-score
TTAGGACTTGGGACTGGGTTAGTGCTA | -0.532 z-score
TTAGGGTCCCTTTTCCTTTAGTGCTAG | 0.435 z-score
TAAGAACTGAGTATCGATTAGTGCTAG | 4.46 z-score
GTCGGACTGGGGTTTCGGGACGTGCTA | 2.19 z-score
TTAGGTATCGGGCTGGGTTAGTGCTAG | 4.25 z-score

Set 4
Target: RNA binding protein fox-1 homolog 2, RRM domain, GST-SBP tag (RBFOX2, Homo sapiens, UniProt O43251-10, residues 100-194)
Method: RNA Bind-n-Seq
Molecule type: RNA
Matrix: in vitro
Tested at: 365 nM
Setting: natural RNA segment, single round, ends assumed
Reference: no-protein control
Direction: higher = stronger binding
Residues (chain): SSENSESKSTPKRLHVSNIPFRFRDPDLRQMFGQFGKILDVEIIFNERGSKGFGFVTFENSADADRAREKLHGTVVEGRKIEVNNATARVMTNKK
Oligonucleotide | RBNS enrichment (R)
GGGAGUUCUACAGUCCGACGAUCGAAAGGAGGGGAGAAAGCGGGCUCUCACCCCCUCAGGAGUGGGCACGGGAGCCCUUCUCCCUGACCCUGGGCUGCUUCCUGGGGGCUCUCCAGACCCCUCUCUAGGACCAUGGAAUUCUCGGGUGCCAA | 0.474
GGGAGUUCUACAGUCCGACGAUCGCCUGAGAGCUGUACCUAUCAGAACCUUGGGUGCUAAGCUGUGCUGAGGGGGAAGACGUGGGACCGGAUGGCCCGUCUGAGGUUUGUGGGGUCACUGUGCAAGCUUCCUUUGGAAUUCUCGGGUGCCAA | 0.307
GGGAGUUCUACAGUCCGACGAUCACACAAUAAAACUCUGAAAUGAAGAUGCUUUGCUGUGCAUUGUUUGAAAGAUUACAAACAGCUGUUUCUCAAACCCUCUCAAUCCAUCAUAAUAAAAUACAUAAUAUUGUUGGAAUUCUCGGGUGCCAA | 0.365
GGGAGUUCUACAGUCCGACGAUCAUGUAUUUUUACUACACUUUUCUUAAAAAUGGAGCAGUGGGAAAACUCUGAAAGAGAUUGACAUUUUUCUCAACAGGAAUCCAUACUUAACAGUUCUGGCUUUCAUUAAAUGGAAUUCUCGGGUGCCAA | 0.385
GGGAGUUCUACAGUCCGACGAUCGGUAUAGCAUAUGUUUUUGUAAGUUUAUGCAUACAGUAAUUUUAAGUAAUUUCAGAAGAAAUUCUGCAAGCUUUUCAAAAUUGGACUUAAAAUCUAAUUCAAACUAAUAGUGGAAUUCUCGGGUGCCAA | 0.456
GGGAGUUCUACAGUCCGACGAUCUGGCUCUGGGCGGUUCGUGCCCUUGCUAGCCACUACCCUUCAAUUCACCUGUGAUGCUAGCAUUAAUGGCACCACCAUAUUCAUGCCAGUAGGCUCCCUGCAGUCCUUGGUGGAAUUCUCGGGUGCCAA | 0.357
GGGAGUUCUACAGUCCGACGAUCGCCCGUCCGGUAAACUAUGGUCCUGGGUGCCCAGUUGUGCAGUAGGGGGAGAAGCUGAAAGAUAAGGACUCAACCCAAGUCAUUUGUCUUCUUUCCUGCUAUGCUGUGAGUGGAAUUCUCGGGUGCCAA | 0.238
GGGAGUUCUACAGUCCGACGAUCGGGCUCCUGCCCAGGACAGGCACCAGGGUCAUGGCCUGGGACCUGGACACUGGCCCCUCCACCCUCCCUCCCCUCCCGGCUCCCCGGCCAGAGGGAGAGCUUGGUCUCUGUGGAAUUCUCGGGUGCCAA | 0.28
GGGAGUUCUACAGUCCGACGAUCAGCUGUGCGGCAUGGGCUAAGUCACUCUGCCCUUCGGAGCCUCUGGAAGCUUAGGGCACAUUGGUUCCAGCCUAGCCAGUUUCUCACCCUGGGUUGGGGUCCCCCAGCAUUGGAAUUCUCGGGUGCCAA | 0.46
